Assay results of several laboratories.
Parts stem from different laboratories: compare values within a part only. Positions count from the first letter of the parent shown.

Set 1 — technique: protein-binding microarray; form: double-stranded DNA, one strand shown; sample: in vitro; tested at: 940 nM top; setting: 60-bp whole probe; added: salmon DNA 0.4 mg/ml; relative to: random background probes; direction: higher = stronger binding; shared flanks, not repeated: GCCTAGCAC … GTCTTGATTCGCTTGACGCTGCTG
Target: Interferon regulatory factor 5, full length, phosphomimetic (IRF5, Homo sapiens, UniProt Q13568-2, residues 1-514, S451D/S453D/S456D/S462D)
Oligonucleotide | fitted relative affinity [z-score]
TACGATCTCAGACTGGAGACGTGCTAG | -0.143
TCAAATTTACTTTGGTTACTGTGCTAG | -0.235
AGTTCTAAGGATTTCAGTTTGTGCTAG | -0.242
GACGATTACAGACTGGAGACGTGCTAG | -0.609
GGCTGTTTGGTTCTGATCCTGTGCTAG | 0.0995
GACGGATTCCTTATCCTGACGTGCTAG | -0.194
GACGACTTCGGGTATCGAGACGTGCTA | 0.73
TTAGATTTCGTGACTGGATTAGTGCTA | 0.0925
TTAGGTTCCCTTTTCCTCTAGTGCTAG | 0.735
TTAGGTATCGGGTATGGGTTAGTGCTA | 5.81
TCAAGTTTCCATTTTCAACTGTGCTAG | 1.45
GACGGTAACGACTATCGGGACGTGCTA | -0.208
GACGGTTTCGACTTTCGGCACGTGCTA | 7.14
GACGGTACCGACTATCGGGACGTGCTA | -0.298
TCGGGTCTCCCTTGAGGTTTGTGCTAG | 0.135
TTAGGTATACTTTTCCTTTAGTGCTAG | -0.153
AGTGTTACCCCTCATCAACCAGTGCTA | 0.687

Set 2 — technique: DHFR PCA, dose-response; sample: yeast; setting: Hill fit, mean, not affinity; added: (+)-ABA, dose series; direction: lower = more sensitive
Target: ABI1, truncated, D143A, DHFR fusion (Arabidopsis thaliana, UniProt P49597)
Parent: PYL1, truncated, DHFR fusion (Arabidopsis thaliana, UniProt Q8VZS8); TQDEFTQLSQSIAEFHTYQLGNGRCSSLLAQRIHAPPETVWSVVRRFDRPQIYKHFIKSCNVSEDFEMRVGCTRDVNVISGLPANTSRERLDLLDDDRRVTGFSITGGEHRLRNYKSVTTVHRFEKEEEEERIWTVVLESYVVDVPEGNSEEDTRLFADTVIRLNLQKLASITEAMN
Substitution | ABA EC50 [µM]
W134G | 2.06
G107H | 42.2
E67D | 2.78
L156C | 0.681
S26G | 4.63
Q10N | 4.1
K126E | 2.44
D95R | 106
Q31V | 16.1
Q2G | 3.28
S59N | 3.07
I33C | 7.51
T173L | 16
L29M | 5.35
G23S | 6.68
R88W | 20.8
C25M | 16.5

Set 3 — target: CCNB1, cyclin fold, Cln2 fusion (human); technique: yeast growth competition, sequencing; sample: yeast; setting: weak parent motif; relative to: not given; direction: higher = stronger binding
Parent: FOXM1 docking peptide (human); PHLARPIKVESPP
Substitution | normalised enrichment score
I7A | -0.267
K8A | -0.156
H2A | -0.103
P13A | -0.228
S11A | -0.209
L3A | 0.0822

Set 4 — target: BATF2, bZIP domain (human); technique: DHFR protein complementation; sample: yeast; relative to: wild-type JUN-FOS pair; direction: higher = stronger binding
Setting: single substitutions, most at no-binding floor
Parent: JUN, bZIP domain (human); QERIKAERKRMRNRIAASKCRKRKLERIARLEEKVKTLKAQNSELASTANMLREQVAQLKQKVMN; partner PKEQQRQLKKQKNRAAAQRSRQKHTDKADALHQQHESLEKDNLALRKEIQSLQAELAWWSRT
Substitution | binding fitness
A40E | -0.242 natural log
Q41W | -1.38 natural log
N42Q | -0.878 natural log
I28T | -0.472 natural log
R53K | -0.484 natural log
T48Q | -0.223 natural log
Q55G | -1.2 natural log
L52K | -1.47 natural log
V56T | -1.14 natural log
Q41S | -1.32 natural log
N42L | -1.46 natural log
R30Y | -0.238 natural log
A46M | -0.266 natural log
S47D | -0.118 natural log
S47L | -0.289 natural log
E44L | -0.518 natural log
T48K | -0.188 natural log
K36Y | -0.538 natural log

Some of these lines once more (set 4):
Substitution | binding fitness
I28T | -0.472 natural log
R53K | -0.484 natural log
T48Q | -0.223 natural log
Q55G | -1.2 natural log
L52K | -1.47 natural log
V56T | -1.14 natural log
Q41S | -1.32 natural log
N42L | -1.46 natural log
R30Y | -0.238 natural log
A46M | -0.266 natural log
